Experimental data pooled from the literature.
Parts stem from different laboratories: compare values within a part only. Positions count from the first letter of the parent shown.

Study 1
Target: Sal-like protein 4, full length isoform A (SALL4, Homo sapiens, UniProt Q9UJQ4, residues 1-1053)
UniProt Q9UJQ4, sequence (whole entry, looked up): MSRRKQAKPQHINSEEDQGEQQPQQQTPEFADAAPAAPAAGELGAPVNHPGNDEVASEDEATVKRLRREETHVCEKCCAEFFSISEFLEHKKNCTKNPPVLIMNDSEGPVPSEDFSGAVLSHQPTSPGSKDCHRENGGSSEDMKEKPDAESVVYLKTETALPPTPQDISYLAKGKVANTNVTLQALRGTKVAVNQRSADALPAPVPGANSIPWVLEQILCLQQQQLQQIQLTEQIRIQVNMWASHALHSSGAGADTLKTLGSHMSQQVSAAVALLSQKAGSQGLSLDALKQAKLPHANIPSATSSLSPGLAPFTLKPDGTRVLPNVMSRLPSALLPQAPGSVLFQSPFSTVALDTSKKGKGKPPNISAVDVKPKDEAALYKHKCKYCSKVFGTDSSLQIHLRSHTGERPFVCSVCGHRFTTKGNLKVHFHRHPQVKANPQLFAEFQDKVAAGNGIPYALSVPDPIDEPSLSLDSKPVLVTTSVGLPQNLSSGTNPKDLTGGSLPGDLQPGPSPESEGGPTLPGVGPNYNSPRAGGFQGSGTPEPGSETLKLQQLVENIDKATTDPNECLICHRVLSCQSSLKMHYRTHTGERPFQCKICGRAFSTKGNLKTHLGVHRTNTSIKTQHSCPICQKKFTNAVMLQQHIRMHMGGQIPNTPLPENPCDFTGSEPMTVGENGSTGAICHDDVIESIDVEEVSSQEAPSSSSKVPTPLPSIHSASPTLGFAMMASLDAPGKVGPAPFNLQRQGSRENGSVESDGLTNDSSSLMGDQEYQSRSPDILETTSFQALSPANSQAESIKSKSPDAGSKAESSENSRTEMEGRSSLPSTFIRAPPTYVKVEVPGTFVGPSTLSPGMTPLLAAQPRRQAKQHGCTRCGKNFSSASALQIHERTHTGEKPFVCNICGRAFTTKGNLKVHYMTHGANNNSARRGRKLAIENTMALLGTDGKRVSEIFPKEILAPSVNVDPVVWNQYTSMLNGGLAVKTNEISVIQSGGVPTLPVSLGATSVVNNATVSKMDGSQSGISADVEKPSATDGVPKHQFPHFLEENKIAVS
Technique: universal PBM
Molecule type: double-stranded DNA, one strand shown
Matrix: in vitro
Tested at: 600 nM
Setting: 8-mer, flanks averaged, mean of replicates
Reading: higher = stronger binding
Oligonucleotide	E-score
CGCCCGTC	-0.219
CACTACTC	-0.027
GTGACGAA	-0.0839
CCGTGGAA	-0.0247
CCGATGCC	-0.201
GCTGCTCC	-0.344
GACCCTCA	-0.146
ATCTTAAA	0.19
CAAAACCA	0.211
CTTCGGTA	-0.0846
ACGCTAAT	0.066
AAATTCTT	0.191
ACATCGTG	-0.0704
CCATATGA	0.119
ATATTCAC	0.309
ACCCACTG	-0.249
AAATCGGC	-0.0828
GGGTATAA	0.15
AATCAAGA	0.212
ACAATCCG	0.00281
CTCTGTGC	-0.137
AAGTAAAT	0.371

Study 2
Target: Histone acetyltransferase KAT6A, winged helix 2, GST fusion (KAT6A, Homo sapiens, UniProt Q92794, residues 85-181)
Technique: protein binding microarray
Molecule type: double-stranded DNA, one strand shown
Matrix: in vitro
Tested at: not given
Setting: 8-mer, flanks averaged, mean of 2 arrays, mostly near background
Relative to: not given
Reading: higher = stronger binding
Residues (chain): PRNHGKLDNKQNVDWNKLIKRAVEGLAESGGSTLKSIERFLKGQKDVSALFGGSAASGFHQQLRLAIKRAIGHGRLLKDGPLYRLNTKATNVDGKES
Oligonucleotide	E-score
AAATTTGG	-0.156
ATGGGTGC	-0.141
AGAGTCGC	-0.00153
TAGAAAAA	0.0999
AACGTTCA	-0.384
CTCACCCC	-0.0612
AGCCCACT	-0.00974
CGAATGCG	0.0491
CCCTAAAA	-0.044
GTGCTGAA	-0.0299
CCGAGGCA	0.0738
ACACTCAT	-0.0481
AGTGGTAC	-0.139
ATTGACAA	-0.0518
AAGTGTAC	-0.158
AGGCAAGG	-0.0566
CGAGAGCA	0.211
ACGGCCAA	0.0182
CACGCGTG	0.297

Study 3
Target: ABI1, truncated, D143A, DHFR fusion (Arabidopsis thaliana)
Technique: DHFR PCA, deep sequencing
Matrix: yeast
Setting: methotrexate growth selection, single substitutions
Added: (+)-ABA 2500 µM
Relative to: wild-type fitted maximum
Reading: higher = stronger binding
Starting sequence: PYL1, truncated, DHFR fusion (Arabidopsis thaliana); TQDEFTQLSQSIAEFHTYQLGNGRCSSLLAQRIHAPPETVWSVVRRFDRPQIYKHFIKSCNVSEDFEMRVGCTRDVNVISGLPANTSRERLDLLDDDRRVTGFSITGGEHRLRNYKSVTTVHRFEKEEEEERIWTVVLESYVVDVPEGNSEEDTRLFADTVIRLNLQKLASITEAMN; partner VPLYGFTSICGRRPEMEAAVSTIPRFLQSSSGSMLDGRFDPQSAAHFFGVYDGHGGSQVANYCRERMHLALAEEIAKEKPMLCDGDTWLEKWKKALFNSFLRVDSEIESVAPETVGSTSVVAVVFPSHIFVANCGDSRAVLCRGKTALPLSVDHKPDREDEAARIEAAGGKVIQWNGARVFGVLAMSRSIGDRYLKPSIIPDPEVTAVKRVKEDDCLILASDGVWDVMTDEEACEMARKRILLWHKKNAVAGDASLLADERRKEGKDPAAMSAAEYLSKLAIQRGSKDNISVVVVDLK
Change	relative binding score [%]
E64Y	91.4
L28F	91.5
R69H	98.7
S59R	96
E147M	95.1
T154V	96.9
V136C	103
T101A	96.7
V145A	89.9
D92P	-1.47
H34F	94.8
L94H	108
E89S	27.2
E125S	100
V100N	71.3
R111M	89.3

Study 4
Target: CCND2, cyclin fold, Cln2 fusion (human)
Technique: yeast growth competition, sequencing
Matrix: yeast
Setting: weak parent motif
Relative to: not given
Reading: higher = stronger binding
Starting sequence: CDT1 docking peptide (human); PPARRRLRLSVDE
Change	normalised enrichment score
PPARARLRLSVDE [R5A]	0.08
PPARRRLRLSADE [V11A]	0.262
PPARKRLRFSVDE [R5K L9F]	0.498
PPARRRLRLAVDE [S10A]	-0.253
PPARRRLRFSVDE [L9F]	0.458
PPARRRLRASVDE [L9A]	0.248
PPARRRLRLSVDA [E13A]	0.331
PPARARARLSVDE [R5A L7A]	0.0809
PPARRRARLSVDE [L7A]	0.318

Study 5
Target: Interferon regulatory factor 7, full length, phosphomimetic (IRF7, Homo sapiens, UniProt Q92985, residues 1-503, S101K/S471D/S472D/S475D/S476D/S477D/S483D/S484D/S487D)
Technique: protein-binding microarray
Molecule type: double-stranded DNA, one strand shown
Matrix: in vitro
Tested at: 250 nM
Setting: 60-bp whole probe
Added: salmon DNA 0.4 mg/ml
Relative to: random background probes
Reading: higher = stronger binding
All sequences stand within: GCCTAGCAC … GTCTTGATTCGCTTGACGCTGCTG
Construct (chain): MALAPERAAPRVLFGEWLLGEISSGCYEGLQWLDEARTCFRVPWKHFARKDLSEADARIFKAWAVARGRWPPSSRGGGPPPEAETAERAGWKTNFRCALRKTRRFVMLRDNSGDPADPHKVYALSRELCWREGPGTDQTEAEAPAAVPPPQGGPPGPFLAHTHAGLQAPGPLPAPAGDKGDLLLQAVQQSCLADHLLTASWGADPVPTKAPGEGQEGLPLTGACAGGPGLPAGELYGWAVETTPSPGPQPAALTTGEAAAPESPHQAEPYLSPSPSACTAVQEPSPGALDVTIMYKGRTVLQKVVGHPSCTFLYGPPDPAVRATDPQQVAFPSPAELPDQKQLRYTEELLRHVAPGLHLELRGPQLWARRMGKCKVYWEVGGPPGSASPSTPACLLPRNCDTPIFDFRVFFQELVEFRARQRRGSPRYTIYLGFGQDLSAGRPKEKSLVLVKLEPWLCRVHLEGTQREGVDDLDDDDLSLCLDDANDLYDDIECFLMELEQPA
Oligonucleotide	log fluorescence [z-score]
CTCACCGCTGGAGTTCTGCGGTGCTAG	-0.653
GACGTTTTCGGTATCGGGACGTGCTAG	3.4
TCACTTTCCAATTGTCCTACTGTGCTA	3.82
TTAGGTCTCGGTATCGGTGAGTGCTAG	2.17
GACGGTCTCCATATCCTGACGTGCTAG	0.351
GACCGTATCCTTCTCCTGACGTGCTAG	0.767
TTAGAACTGGGTATCGGTTAGTGCTAG	0.899
TTAGAACTGCGACTGGATTAGTGCTAG	-0.318
TTAGAAATGAGACTGGATTAGTGCTAG	-0.282
AAGACTTTGGTTTGTACACCGTGCTAG	0.0808
GACGATTTCAGTTTCGAAACGTGCTAG	6.47
TTAGATATCGGGTTTAGATTAGTGCTA	0.371
TCACATCTCAAGTAGCCTACTGTGCTA	0.273
TTAGGTTTCCTTATCCTGTAGTGCTAG	2.81
TCATGAGTCACTTCTGGTACTGTGCTA	-0.46
GACAGTTTCCTTATCCTGACGTGCTAG	3.01
GACCATTTCAGACTGGAGACGTGCTAG	0.856
GACGGTTCCGGTTTGGGGACGTGCTAG	5.93
GACGGACTGGGTCTGGGGACGTGCTAG	-0.599
GCATCTATCTTAAATAGGGACGTGCTA	0.509

Study 6
Target: Centromere-binding protein 1, full length, His-tagged (CBF1, Saccharomyces cerevisiae, UniProt P17106, residues 1-351)
UniProt P17106, sequence (whole entry, looked up): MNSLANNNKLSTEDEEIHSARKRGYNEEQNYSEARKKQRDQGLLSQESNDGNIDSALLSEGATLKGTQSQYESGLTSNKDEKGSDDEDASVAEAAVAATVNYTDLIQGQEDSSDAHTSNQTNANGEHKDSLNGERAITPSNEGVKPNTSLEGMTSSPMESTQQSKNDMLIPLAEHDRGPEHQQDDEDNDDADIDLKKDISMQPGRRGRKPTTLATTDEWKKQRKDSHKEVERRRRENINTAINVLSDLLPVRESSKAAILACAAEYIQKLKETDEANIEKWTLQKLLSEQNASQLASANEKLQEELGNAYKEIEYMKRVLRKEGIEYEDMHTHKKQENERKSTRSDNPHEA
Technique: competition protein-binding microarray
Molecule type: double-stranded DNA, one strand shown
Matrix: in vitro
Tested at: 2 µM
Setting: whole 60-bp probe, lowest competitor level
Added: Pho4 competitor, 0.05 µM
Reading: higher = stronger binding
All sequences stand within: … GTCTTGATTCGCTTGACGCTGCTG
Oligonucleotide	fluorescence intensity [a.u.]
GATATCACCAGCTGGCACGTCAGTGTCTTGACCAAT	93.6
TCACTCCTAGTTTTCCATGTGGCTTCAGCTCGAGGA	78.9
CAAAGAAGTAACCTCCACGTTAAGTGCTGAAATAAC	71.7
TTGCATGTAAGCGTTACTAATATTCCGCTTTATTTT	61.4
CTTTTTCGCGGGATTGTCGTGCTTTTCAACCATTTT	73.9
AGTGTAAGATGTGCTTTCGTGACTCGAGCGAAGGGG	91.4
TACACCCAGTCATCCGGCGTGACGGGATCTCCACTT	69.9
ATAGACAATACTTTTCACATGCCGCATTTAGCCGCC	141
TTGTTGGAAAGAACCGTCGTGGGTATAACCAGACAA	74.1
CCGCTTGTGCCTACCCACGTGGTGAGCAATCTTCTC	1170
GTCTTGTCTCATTTTCACGTGAGGTTCCCCACTTCA	701
TGAAGTGGGAAGGAAGCATTTAGTTCGTGTAGGCTG	56
CTAACGAAGGTTTGAGAAGTGGGTGACAAGCCAAGT	65.7
CAAAGTGAACCTGGACACGTTCTTGCCAGTGCTTTC	91.3
TATGGTAACCTCTGCCATGCTGTCTCTGTTCCTTGA	71.4
TAAAATGAAAAATGATCCGTGATGGGAAAAGTTATA	110
ACATCTTTCAATTTGCACGGGTGCAACCTCAAATAT	153
CACGATTGCTATCGCAGTAATAGCCTAACCTCCATC	62.4
AACTCTCGCAGCCGTCACGTGCAAATTGATACAAGT	4990
GCAAGACCTAAAAAATTCGTGCCAGGGTTTGAGCTA	56.8
CTCTTAGTTTGGCATCTCATGACGCGGCACACATTC	77.3
GGAGGTAAGGACAAACTCGTGGAAGTGGCGATTAAT	74.1
GTCTTGTCTCATTGCGTAGTGGGTGTCCCCACTTCA	70.8
AAAGCGGTAATTTGGTTAGTGGGTGCAGATATCTAT	84.7
GATGAACTTGTTTAGCACGTGAATATAAGATGAGAG	1780

Other studies, line by line
Substance	target	assay	test system	conditions	how to read	measurement	result
PhoQ, residues 284 288 289 292 302 303 QWGLFV	PhoP, residues 12 14 15 18 19 IQFRS (Escherichia coli, UniProt P23836)	Sort-seq, item: YFP reporter	E. coli	PhoQ-PhoP variant library, added: 10 µM Mg2+	relative to: high Mg2+ state, higher = stronger signaling	fold induction	2.68
